{"data": "Measurements from different studies", "CNR2": "Cannabinoid receptor 2 (CNR2, Homo sapiens, UniProt P34972)", "agrC": "Receptor-histidine kinase AgrC (agrC, Staphylococcus aureus, UniProt O07911)", "GPR139": "Probable G-protein coupled receptor 139 (GPR139, Homo sapiens, UniProt Q6DWJ6)", "note": "Each line is one published result; not all experiments were run side by side. Values joined by “and” are separate records of one study, mostly repeats; a detail may differ. ± gives the spread as reported.", "UniProt P34972, sequence (whole entry, looked up)": "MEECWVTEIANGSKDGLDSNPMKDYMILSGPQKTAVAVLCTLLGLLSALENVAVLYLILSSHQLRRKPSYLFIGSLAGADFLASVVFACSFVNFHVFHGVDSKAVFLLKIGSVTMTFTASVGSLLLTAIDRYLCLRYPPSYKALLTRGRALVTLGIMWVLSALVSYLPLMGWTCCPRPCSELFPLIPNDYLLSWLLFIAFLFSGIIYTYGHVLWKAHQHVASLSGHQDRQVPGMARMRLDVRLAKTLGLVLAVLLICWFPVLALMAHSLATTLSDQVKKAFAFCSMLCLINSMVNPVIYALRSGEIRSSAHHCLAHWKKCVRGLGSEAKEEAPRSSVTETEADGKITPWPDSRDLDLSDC", "UniProt P30988, sequence (whole entry, looked up)": "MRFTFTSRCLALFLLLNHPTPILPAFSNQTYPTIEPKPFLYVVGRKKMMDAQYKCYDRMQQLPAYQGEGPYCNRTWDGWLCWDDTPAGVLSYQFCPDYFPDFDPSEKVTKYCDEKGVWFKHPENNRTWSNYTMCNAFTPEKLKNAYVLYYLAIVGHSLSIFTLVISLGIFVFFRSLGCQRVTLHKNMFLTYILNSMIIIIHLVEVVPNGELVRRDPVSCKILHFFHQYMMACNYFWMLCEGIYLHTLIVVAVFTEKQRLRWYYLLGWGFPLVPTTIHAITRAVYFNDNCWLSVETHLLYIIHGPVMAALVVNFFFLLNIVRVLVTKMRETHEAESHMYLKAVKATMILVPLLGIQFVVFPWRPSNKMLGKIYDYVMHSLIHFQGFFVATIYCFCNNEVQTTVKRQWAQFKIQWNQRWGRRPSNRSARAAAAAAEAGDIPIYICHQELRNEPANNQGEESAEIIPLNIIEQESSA", "UniProt Q6DWJ6, sequence (whole entry, looked up)": "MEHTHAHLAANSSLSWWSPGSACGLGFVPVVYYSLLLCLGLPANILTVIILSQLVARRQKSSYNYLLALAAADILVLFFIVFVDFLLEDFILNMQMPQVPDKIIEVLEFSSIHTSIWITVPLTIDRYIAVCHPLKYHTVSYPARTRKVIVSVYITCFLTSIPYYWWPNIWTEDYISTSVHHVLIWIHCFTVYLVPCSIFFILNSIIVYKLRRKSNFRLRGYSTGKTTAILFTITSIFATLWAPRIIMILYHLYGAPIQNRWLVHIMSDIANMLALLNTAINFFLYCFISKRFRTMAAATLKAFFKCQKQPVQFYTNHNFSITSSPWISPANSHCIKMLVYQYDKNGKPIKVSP", "UniProt Q62968, sequence (whole entry, looked up)": "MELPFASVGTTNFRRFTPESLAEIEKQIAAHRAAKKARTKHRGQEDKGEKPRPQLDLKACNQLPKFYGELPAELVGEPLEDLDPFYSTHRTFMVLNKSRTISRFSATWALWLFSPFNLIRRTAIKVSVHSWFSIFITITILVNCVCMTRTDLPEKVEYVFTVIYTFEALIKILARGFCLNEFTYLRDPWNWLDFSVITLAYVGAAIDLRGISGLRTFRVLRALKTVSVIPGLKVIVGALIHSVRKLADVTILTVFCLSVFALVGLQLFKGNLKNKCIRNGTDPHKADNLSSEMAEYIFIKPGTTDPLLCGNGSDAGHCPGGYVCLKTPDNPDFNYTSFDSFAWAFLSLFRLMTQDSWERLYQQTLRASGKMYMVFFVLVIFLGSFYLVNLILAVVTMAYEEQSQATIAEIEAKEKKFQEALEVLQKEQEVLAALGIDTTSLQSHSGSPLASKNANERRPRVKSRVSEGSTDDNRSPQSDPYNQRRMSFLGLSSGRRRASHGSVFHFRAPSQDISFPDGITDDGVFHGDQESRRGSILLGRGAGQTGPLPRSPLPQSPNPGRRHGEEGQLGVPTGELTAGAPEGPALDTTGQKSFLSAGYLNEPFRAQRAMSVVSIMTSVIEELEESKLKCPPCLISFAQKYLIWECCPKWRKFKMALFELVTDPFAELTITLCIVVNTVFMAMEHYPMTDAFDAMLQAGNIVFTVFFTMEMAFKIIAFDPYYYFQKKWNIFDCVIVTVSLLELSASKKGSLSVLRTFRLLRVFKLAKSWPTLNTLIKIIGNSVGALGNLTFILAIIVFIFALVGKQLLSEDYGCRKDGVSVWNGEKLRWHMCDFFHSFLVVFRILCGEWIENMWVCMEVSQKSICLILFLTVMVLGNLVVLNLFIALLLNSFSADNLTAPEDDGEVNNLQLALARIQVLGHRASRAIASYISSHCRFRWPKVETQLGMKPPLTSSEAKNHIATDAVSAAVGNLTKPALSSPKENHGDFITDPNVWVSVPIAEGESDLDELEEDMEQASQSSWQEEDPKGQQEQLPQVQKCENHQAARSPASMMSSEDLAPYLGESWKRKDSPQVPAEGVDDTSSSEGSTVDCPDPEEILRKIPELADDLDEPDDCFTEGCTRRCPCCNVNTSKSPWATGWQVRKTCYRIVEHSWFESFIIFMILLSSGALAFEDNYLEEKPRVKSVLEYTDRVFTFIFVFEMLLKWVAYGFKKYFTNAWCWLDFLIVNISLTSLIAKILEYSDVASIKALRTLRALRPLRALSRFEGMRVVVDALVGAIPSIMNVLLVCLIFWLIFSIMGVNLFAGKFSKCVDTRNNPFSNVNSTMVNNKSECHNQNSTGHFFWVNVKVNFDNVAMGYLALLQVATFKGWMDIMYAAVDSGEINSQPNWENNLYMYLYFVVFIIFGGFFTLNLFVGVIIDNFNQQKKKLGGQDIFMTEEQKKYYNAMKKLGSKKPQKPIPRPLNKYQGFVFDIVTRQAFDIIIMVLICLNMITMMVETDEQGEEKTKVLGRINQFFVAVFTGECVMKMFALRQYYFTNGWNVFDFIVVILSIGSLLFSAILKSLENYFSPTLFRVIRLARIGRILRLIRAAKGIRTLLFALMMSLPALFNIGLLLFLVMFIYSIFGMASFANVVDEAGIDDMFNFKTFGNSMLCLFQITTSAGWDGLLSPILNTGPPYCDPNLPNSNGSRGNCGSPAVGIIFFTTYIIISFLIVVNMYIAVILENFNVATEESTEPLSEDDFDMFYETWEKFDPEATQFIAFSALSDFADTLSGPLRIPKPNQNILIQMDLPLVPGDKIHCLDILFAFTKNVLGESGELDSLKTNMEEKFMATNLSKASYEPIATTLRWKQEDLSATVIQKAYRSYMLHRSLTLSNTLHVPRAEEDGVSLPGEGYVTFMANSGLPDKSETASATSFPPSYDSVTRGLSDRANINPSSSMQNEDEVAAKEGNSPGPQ", "UniProt P41968, sequence (whole entry, looked up)": "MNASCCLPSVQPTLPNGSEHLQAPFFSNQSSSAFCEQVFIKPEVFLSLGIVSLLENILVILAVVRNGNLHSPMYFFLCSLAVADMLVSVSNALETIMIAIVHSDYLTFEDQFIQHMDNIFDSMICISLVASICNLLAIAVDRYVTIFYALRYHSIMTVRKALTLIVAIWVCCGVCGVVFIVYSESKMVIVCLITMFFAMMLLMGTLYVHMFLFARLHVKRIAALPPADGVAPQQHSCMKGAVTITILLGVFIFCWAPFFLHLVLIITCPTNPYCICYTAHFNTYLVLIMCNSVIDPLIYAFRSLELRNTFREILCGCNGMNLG", "UniProt Q704Y3, sequence (whole entry, unmodified, looked up)": "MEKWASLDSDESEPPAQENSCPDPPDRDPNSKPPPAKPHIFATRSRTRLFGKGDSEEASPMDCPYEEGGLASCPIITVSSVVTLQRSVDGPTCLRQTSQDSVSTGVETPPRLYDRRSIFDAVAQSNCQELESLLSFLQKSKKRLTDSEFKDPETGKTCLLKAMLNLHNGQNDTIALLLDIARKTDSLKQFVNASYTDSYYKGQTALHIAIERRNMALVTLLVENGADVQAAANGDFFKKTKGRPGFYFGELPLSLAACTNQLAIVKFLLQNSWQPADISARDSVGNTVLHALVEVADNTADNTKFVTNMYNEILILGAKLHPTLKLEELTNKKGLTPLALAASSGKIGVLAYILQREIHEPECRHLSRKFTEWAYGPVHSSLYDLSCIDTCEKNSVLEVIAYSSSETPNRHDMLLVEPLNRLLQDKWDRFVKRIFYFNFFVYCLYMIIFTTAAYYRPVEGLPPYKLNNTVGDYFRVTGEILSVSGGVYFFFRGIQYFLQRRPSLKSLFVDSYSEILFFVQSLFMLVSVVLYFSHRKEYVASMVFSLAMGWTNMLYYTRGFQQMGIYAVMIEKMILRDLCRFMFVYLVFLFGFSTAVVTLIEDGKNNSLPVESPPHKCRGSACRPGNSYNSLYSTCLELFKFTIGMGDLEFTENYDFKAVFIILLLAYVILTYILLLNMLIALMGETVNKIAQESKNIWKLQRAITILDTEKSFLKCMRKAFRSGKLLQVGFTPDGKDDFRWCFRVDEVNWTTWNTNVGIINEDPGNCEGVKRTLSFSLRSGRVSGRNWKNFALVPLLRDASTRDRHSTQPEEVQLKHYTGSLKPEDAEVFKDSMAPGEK", "UniProt Q9UKP6, sequence (whole entry, unmodified, looked up)": "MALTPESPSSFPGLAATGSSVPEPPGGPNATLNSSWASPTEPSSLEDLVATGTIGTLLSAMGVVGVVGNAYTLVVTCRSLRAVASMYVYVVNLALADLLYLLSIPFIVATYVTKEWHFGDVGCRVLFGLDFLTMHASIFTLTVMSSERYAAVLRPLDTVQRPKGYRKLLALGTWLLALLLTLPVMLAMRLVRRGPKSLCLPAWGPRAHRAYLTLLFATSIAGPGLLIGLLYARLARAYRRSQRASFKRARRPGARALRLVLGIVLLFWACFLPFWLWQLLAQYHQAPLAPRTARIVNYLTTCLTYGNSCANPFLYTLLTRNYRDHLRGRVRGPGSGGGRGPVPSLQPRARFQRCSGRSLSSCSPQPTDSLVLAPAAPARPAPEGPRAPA", "UniProt Q15391, sequence (whole entry, looked up)": "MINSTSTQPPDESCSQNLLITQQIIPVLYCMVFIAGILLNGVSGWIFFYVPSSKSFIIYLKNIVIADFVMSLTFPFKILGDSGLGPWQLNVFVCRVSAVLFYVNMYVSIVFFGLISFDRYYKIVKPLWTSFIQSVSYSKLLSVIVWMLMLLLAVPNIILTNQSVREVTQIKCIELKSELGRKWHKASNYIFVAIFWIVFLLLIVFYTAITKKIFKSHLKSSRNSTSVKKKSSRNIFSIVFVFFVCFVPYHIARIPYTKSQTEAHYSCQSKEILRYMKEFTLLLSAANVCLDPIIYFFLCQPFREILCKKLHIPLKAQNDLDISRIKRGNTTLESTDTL"}
{"Compound": "CCOC(=O)C(CC)(CC)NC(=O)c1ccc(C2CC2)c(Cc2ccc(F)cc2)n1", "target or system": "CNR2", "assay": "cAMP, agonist", "measurement": "EC50", "value": "0.7 nM"}
{"Compound": "CC[C@H](C)[C@@H]1NC(=O)[C@@H]2CCCN2C(=O)[C@H](CC(=O)O)NC(=O)[C@@H](NC(=O)[C@@H](NC(=O)[C@H](CO)NC(=O)[C@@H](N)Cc2ccc(O)cc2)[C@@H](C)O)CSC(=O)[C@H](CCSC)NC1=O", "target or system": "agrC", "test system": "Staphylococcus aureus cells", "measurement": "EC50", "value": "> 10000 nM"}
{"Compound": "O=C(O)CCn1c(=O)oc2cc(Cl)c(Cl)cc21", "target or system": "CNR2", "assay": "agonist", "measurement": "EC50", "value": "> 100000 nM"}
{"Compound": "O=C1NC2(CC2)COc2ncc(F)cc2[C@H]2COCCN2c2ccn3ncc1c3n2", "test system": "Sprague-Dawley rat, female, ovaries", "conditions": "oral, 5 mg/kg/day, 4 weeks dosing, end of recovery", "measurement": "organ-to-body weight ratio", "value": "0.036 ± 0.006%"}
{"Compound": "CCCCC/C=C\\C/C=C\\C/C=C\\C/C=C\\CCCC(=O)NCCc1ccc(O)c(O)c1", "target or system": "Transient receptor potential cation channel subfamily V member 1 (Trpv1, Mus musculus, UniProt Q704Y3, N552L)", "assay": "ion current, agonist, whole-cell patch clamp", "conditions": "24 °C, N552L, +80 mV", "measurement": "EC50", "value": "170 ± 70 nM"}
{"Compound": "CCCCCn1ccc(C(=O)NC(C)(C)c2ccccc2)n1", "target or system": "CNR2", "assay": "calcium signal, agonist", "measurement": "EC50", "value": "> 10000 nM"}
{"Compound": "CC[C@H](C)[C@H](NC(=O)[C@@H]1CCCN1C(=O)CNC(=O)[C@H](Cc1ccccc1)NC(=O)[C@H](CC(N)=O)NC(=O)[C@H](CC(N)=O)NC(=O)[C@H](CO)NC(=O)[C@H](CO)NC(=O)[C@H](Cc1c[nH]cn1)NC(=O)[C@H](CCCNC(=N)N)NC(=O)[C@H](CC(C)C)NC(=O)[C@H](Cc1ccccc1)NC(=O)[C@H](CCC(=O)O)NC(=O)[C@H](C)NC(=O)[C@H](CC(C)C)NC(=O)[C@H](CCCNC(=N)N)NC(=O)[C@H](CCC(N)=O)NC(=O)[C@@H](NC(=O)[C@H](C)NC(=O)[C@@H]1CSSC[C@H](NC(=O)[C@@H](N)CCCCN)C(=O)N[C@@H](CC(N)=O)C(=O)N[C@@H]([C@@H](C)O)C(=O)N[C@@H](C)C(=O)N[C@@H]([C@@H](C)O)C(=O)N1)[C@@H](C)O)C(=O)N[C@@H](CC(C)C)C(=O)N1CCC[C@H]1C(=O)N1CCC[C@H]1C(=O)N[C@H](C(=O)N[C@@H](CC(N)=O)C(=O)N[C@H](C(=O)NCC(=O)N[C@@H](CO)C(=O)N[C@@H](CC(N)=O)C(=O)N[C@H](C(=O)N1CCC[C@H]1C(N)=O)[C@@H](C)O)C(C)C)[C@@H](C)O", "target or system": "Calcitonin receptor, isoform a (CALCR, Homo sapiens, UniProt P30988)", "assay": "reporter gene, agonist, CRE-luciferase", "test system": "BHK expressing CTR", "conditions": "3 h", "measurement": "EC50", "value": "0.0138 nM"}
{"Compound": "CCCCCCCCCCCCCCCCCC(=O)NC[C@H]1CC[C@H](C(=O)N[C@@H](CCC(=O)NCCCOCCOCCOCCCNC(=O)COCC(=O)N[C@@H](Cc2ccc(O)cc2)C(=O)NC(C)(Cc2ccccc2)C(=O)N[C@@H](CC(C)C)C(=O)N[C@@H](CCCC)C(=O)N[C@@H](CCCNC(=N)N)C(=O)N2CCC[C@H]2C(=O)N[C@@H](CCCNC(=N)NC)C(=O)N[C@@H](CC(N)=O)C(N)=O)C(=O)O)CC1 (stereo partly shown)", "target or system": "Mas-related G-protein coupled receptor member X2 (MRGPRX2, Homo sapiens, UniProt Q96LB1)", "assay": "β-arrestin recruitment, agonist", "measurement": "EC50", "value": "3700 nM"}
{"Compound": "CC[C@H](C)[C@@H](C(=O)N[C@@H](CC(C)C)C(=O)N[C@@H](CO)C(=O)N[C@@H](CO)C(=O)N[C@H](C(=O)N[C@@H](CC(N)=O)C(=O)N[C@H](C(=O)NCC(=O)N[C@@H](CO)C(=O)N[C@@H](CC(N)=O)C(=O)N[C@H](C(=O)N[C@@H](Cc1ccc(O)cc1)C(N)=O)[C@@H](C)O)C(C)C)[C@@H](C)O)N(C)C(=O)[C@H](C)NC(=O)CN(C)C(=O)[C@H](Cc1ccccc1)NC(=O)[C@H](CC(N)=O)NC(=O)[C@H](CC(N)=O)NC(=O)[C@H](CO)NC(=O)[C@H](CO)NC(=O)[C@H](CCCNC(=N)N)NC(=O)[C@@H](NC(=O)[C@H](CC(C)C)NC(=O)[C@H](Cc1ccccc1)NC(=O)[C@H](CC(N)=O)NC(=O)[C@H](C)NC(=O)[C@H](CC(C)C)NC(=O)[C@H](CCCNC(=N)N)NC(=O)[C@H](CCC(N)=O)NC(=O)[C@@H](NC(=O)[C@H](C)NC(=O)[C@@H]1CSSC[C@H](NC(=O)[C@H](CCCCN)NC(=O)CC[C@H](NC(=O)CCCCCCCCCCCCCCCCCCC(=O)O)C(=O)O)C(=O)N[C@@H](CC(N)=O)C(=O)N[C@@H]([C@@H](C)O)C(=O)N[C@@H](C)C(=O)N[C@@H]([C@@H](C)O)C(=O)N1)[C@@H](C)O)C(C)C", "target or system": "Calcitonin receptor (CALCR, Homo sapiens, UniProt P30988)", "assay": "cAMP, agonist", "measurement": "EC50", "value": "13.2 nM"}
{"Compound": "O=C(Cc1ccc(Cl)c(Cl)c1)N1CCN[C@@H]2COC[C@H](N3CCCC3)[C@H]21", "target or system": "Kappa-type opioid receptor (OPRK1, Homo sapiens, UniProt P41145)", "assay": "β-arrestin recruitment, agonist", "measurement": "EC50", "value": "10000 nM"}
{"Compound": "O=c1ccn([C@@H]2O[C@H](CO[P@@](O)(=S)OP(=O)(O)OP(=O)(O)O)[C@@H](O)[C@H]2O)c(=S)[nH]1", "target or system": "P2Y purinoceptor 14 (P2RY14, Homo sapiens, UniProt Q15391)", "assay": "agonist", "measurement": "EC50", "value": "37 nM"}
{"Compound": "CC[C@H](C)[C@H](NC(=O)[C@H](CCCNC(=N)N)NC(=O)[C@H](CCCNC(=N)N)NC(=O)[C@H](CC(C)C)NC(=O)[C@H](Cc1ccccc1)NC(=O)CNC(=O)CNC(=O)[C@@H](N)Cc1ccc(O)cc1)C(=O)N[C@@H](CCCNC(=N)N)C(=O)N1CCC[C@H]1C(=O)N[C@@H](CCCCN)C(=O)N[C@@H](CC(C)C)C(=O)N[C@@H](CCCCN)C(=O)N[C@@H](Cc1c[nH]c2ccccc12)C(=O)N[C@@H](CC(=O)O)C(=O)N[C@@H](CC(N)=O)C(=O)N[C@@H](CCC(N)=O)C(=O)O", "target or system": "GPR139", "assay": "calcium response, agonist, BRET", "test system": "HEK293T/17, transfected", "measurement": "EC50", "value": "14700 ± 1340 nM"}
{"Compound": "Cc1ccc(OCCN(C)C)cc1C(=O)N[C@H](C)c1cc(-c2ccc(C#N)nc2)nc2ccccc12", "target or system": "Vero E6", "conditions": "7.812 µM", "measurement": "viability", "value": "98.8% and 103%"}
{"Compound": "Cc1cc(O)cc(C)c1C[C@H](N)C(=O)N[C@H](CCCNC(=N)N)C(=O)N[C@@H](Cc1ccccc1)C(=O)N(C)CC(=O)N(C)Cc1cc(C(F)(F)F)cc(C(F)(F)F)c1", "target or system": "Delta-type opioid receptor (OPRD1, Homo sapiens, UniProt P41143, V281A)", "assay": "agonist", "measurement": "EC50", "value": "25.9 nM"}
{"Compound": "CCn1ccc(-c2cc([C@@H](C)NC(=O)c3cc(N4CCN(C)[C@H](C)C4)ccc3C)c3ccccc3n2)n1", "target or system": "Vero E6", "conditions": "250 µM", "measurement": "viability", "value": "2.86% and 3.58% and 4.3%"}
{"Compound": "CC[C@H](C)[C@@H]1NC(=O)C[C@H](Cc2ccccc2)NC(=O)[C@H](CC(=O)O)NC(=O)[C@@H](NC(=O)[C@@H](NC(=O)[C@H](CO)NC(=O)[C@@H](N)Cc2ccc(O)cc2)[C@@H](C)O)CSC(=O)[C@H](CCSC)NC1=O", "target or system": "agrC", "test system": "Staphylococcus aureus cells", "measurement": "EC50", "value": "> 10000 nM"}
{"Compound": "CC(C)[C@H](NC(=O)[C@@H]1CSSC(C)(C)[C@H](NC(=O)[C@@H](N)CC(=O)O)C(=O)N[C@@H](Cc2ccccc2)C(=O)N[C@@H](Cc2c[nH]c3ccccc23)C(=O)N[C@@H](CCCCN)C(=O)N[C@@H](Cc2ccc(O)cc2)C(=O)N1)C(=O)O", "target or system": "Urotensin-2 receptor (UTS2R, Homo sapiens, UniProt Q9UKP6, W277A)", "assay": "IP1 accumulation, agonist, HTRF", "test system": "HEK293T", "conditions": "1 h, 37 °C, W277A mutant, 6.54", "measurement": "EC50", "value": "2 nM"}
{"Compound": "Cc1cc(C(c2ccc(Cl)cc2)c2ccc(Cl)cc2)sc1C(=O)N[C@@H](CCCNC(=N)N)C(=O)O", "target or system": "C3a anaphylatoxin chemotactic receptor (C3ar1, Mus musculus, UniProt O09047)", "assay": "β-arrestin-1 recruitment, agonist, NanoBiT", "measurement": "EC50", "value": "46.8 nM"}
{"Compound": "CSCC[C@@H]1NC(=O)[C@H](Cc2ccccc2)NC(=O)[C@H](CC(=O)O)NC(=O)[C@@H](NC(=O)[C@@H](NC(=O)[C@H](CO)NC(=O)[C@@H](N)Cc2ccc(O)cc2)[C@@H](C)O)CSC1=O", "target or system": "agrC", "test system": "Staphylococcus aureus cells", "measurement": "EC50", "value": "> 10000 nM"}
{"Compound": "CCN(Cc1ccccc1)C(=O)CCc1nc(CN2CCN(C(=O)Cc3ccc(OC)c(OC)c3)CC2)no1", "target or system": "Sodium channel protein type 10 subunit alpha (Scn10a, Rattus norvegicus, UniProt Q62968)", "assay": "activation V1/2 shift, activator, whole-cell patch clamp", "test system": "rat DRG neurons, NaV1.8 current", "measurement": "EC50", "value": "37.6 ± 2.96 nM"}
{"Compound": "CCCC[C@H](NC(C)=O)C(=O)N[C@H]1CCC(=O)NCCC[C@@H](C(=O)N[C@@H](C(=O)N2CCC[C@@H]2C(N)=O)C(C)C)NC(=O)[C@H](Cc2c[nH]c3ccccc23)NC(=O)[C@H](CCCNC(=N)N)NC(=O)[C@@H](Cc2ccc(F)cc2)NC(=O)[C@H](Cc2c[nH]cn2)NC1=O", "target or system": "Melanocortin receptor 3 (MC3R, Homo sapiens, UniProt P41968)", "assay": "cAMP, agonist", "measurement": "EC50", "value": "0.073 nM"}
{"Compound": "CC[C@H](C)[C@H](NC(=O)[C@H](CCCNC(=N)N)NC(=O)[C@H](CCCNC(=N)N)NC(=O)[C@H](CC(C)C)NC(=O)[C@H](Cc1ccccc1)NC(=O)CNC(=O)CNC(=O)[C@@H](N)Cc1ccc(O)cc1)C(=O)N[C@@H](CCCNC(=N)N)C(=O)N1CCC[C@H]1C(=O)N[C@@H](CCCCN)C(=O)N[C@@H](CC(C)C)C(=O)N[C@@H](CCCCN)C(=O)O", "target or system": "GPR139", "assay": "calcium response, agonist, BRET", "test system": "HEK293T/17, transfected", "measurement": "EC50", "value": "13030 ± 100 nM"}
{"note": "A few entries again:"}
{"Compound": "CCn1ccc(-c2cc([C@@H](C)NC(=O)c3cc(N4CCN(C)[C@H](C)C4)ccc3C)c3ccccc3n2)n1", "target or system": "Vero E6", "conditions": "250 µM", "measurement": "viability", "value": "2.86% and 3.58% and 4.3%"}
{"Compound": "CC[C@H](C)[C@@H]1NC(=O)C[C@H](Cc2ccccc2)NC(=O)[C@H](CC(=O)O)NC(=O)[C@@H](NC(=O)[C@@H](NC(=O)[C@H](CO)NC(=O)[C@@H](N)Cc2ccc(O)cc2)[C@@H](C)O)CSC(=O)[C@H](CCSC)NC1=O", "target or system": "agrC", "test system": "Staphylococcus aureus cells", "measurement": "EC50", "value": "> 10000 nM"}
